Measurements of several laboratories.
Numbered parts are unrelated; each lists some results of a single study.

Sample 1
Target: Fragile X messenger ribonucleoprotein 1, C-terminal low-complexity region (Fmr1, Mus musculus, UniProt P35922)
Method: RNA Bind-n-Seq
Form: RNA
Matrix: in vitro
Concentration: 200 nM
Setting: whole 134-nt RNA, ends assumed
With: 150 mM KCl
Reference: input library
Reading: higher = stronger binding
Oligonucleotide | log2 enrichment
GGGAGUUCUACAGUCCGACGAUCGCAGGAAGUAAAAACAAAUGGAAAUGCUUCGGAUAGUGGCAGGGGUGGGGGUUGCUAAGGAAAGGGUGAGAUGGGAGUGGGUAAAGAGUUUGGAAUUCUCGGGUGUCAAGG | 0.197
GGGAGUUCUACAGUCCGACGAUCAAGUCCUGUGCUACACAUCGUAUGUACCGAAUCGGAAAGGUUUUUUUGGAAAAAGGAAAGUAUUAUGUUACGCCGUUCGGAUCUGCACUUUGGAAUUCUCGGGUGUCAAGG | -1.25
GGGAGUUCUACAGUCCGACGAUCAAGUCCUGUGCUACACAUCGUAUGUACCGAAUCGGGAAAAAGGGUUUGGGUUUGGGAAAGUAUUAUGUUACGCCGUUCGGAUCUGCACUUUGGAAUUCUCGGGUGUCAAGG | 0.585
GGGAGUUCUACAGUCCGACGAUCCACAGACAACACGCACCCACACAGACACAGAGGGAAGGGGUUGGGAUGGGGACAGGGUGCACAGCAGGGCGGGGUAGGACCCCAGCCGCUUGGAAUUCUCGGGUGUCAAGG | 1.17
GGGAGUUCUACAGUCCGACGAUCUUCCUCAAGUCCUGUGCUACACAUCGUAUGUACCGAAUCGGUGGUGGGUGGAAAGUAUUAUGUUACGCCGUUCGGAUCUGCACUUCCAGCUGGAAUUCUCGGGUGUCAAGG | -0.0293

Sample 2
Target: RING finger protein unkempt homolog, zinc fingers 1-6, SBP tag (UNK, Homo sapiens, UniProt Q9C0B0, residues 30-357)
Sequence of UniProt Q9C0B0 (30-357, looked up): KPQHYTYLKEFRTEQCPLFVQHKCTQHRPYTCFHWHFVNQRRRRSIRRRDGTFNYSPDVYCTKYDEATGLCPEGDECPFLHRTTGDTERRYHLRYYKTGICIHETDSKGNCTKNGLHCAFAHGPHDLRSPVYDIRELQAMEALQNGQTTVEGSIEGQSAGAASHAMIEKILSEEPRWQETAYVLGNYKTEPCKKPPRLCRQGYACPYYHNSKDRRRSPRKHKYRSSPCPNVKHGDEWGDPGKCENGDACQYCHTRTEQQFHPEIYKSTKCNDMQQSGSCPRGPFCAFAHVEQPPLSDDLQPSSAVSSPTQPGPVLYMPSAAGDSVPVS
Method: RNA Bind-n-Seq
Form: RNA
Matrix: in vitro
Concentration: 100 nM
Setting: RNA with constant flanks, vertebrate orthologous sites, ends assumed
Reference: input RNA pool
Reading: higher = stronger binding
Oligonucleotide | bound/input enrichment [ratio]
GGGAGUUCUACAGUCCGACGAUCUAAAUAAUCAGUUGAAUUGUAUUCUGAUCAAGUGUAACAUUGUGUAGCUUUUGUAUAAAACCAAGAAUGGGAGAAAUGGUCCAAAUAUCGGCUUUCUUGCUUUAAGAUCACCAGUGUCAGCAACAGAGGAUUGAGCAUCA | 0.534
GGGAGUUCUACAGUCCGACGAUCACCUCUGAACCCCAUAUCUUCUGUUUCAUAGUGCAGAAGUAUUCUUUGCAUUUAUAUUAUUAAUGGACUUGUUUUAAUUUUAGAGAAACUUUCAGUACAGAUACUGUGAGCUGUCAUGGACAACAGAGGAUUGAGCAUCA | 1.24
GGGAGUUCUACAGUCCGACGAUCCAUGUCUGGUGAUAUUUGGCCUGGCCUUUCAGCUUAUGAUAAUAGUUCCAGAUCACCCCAUAGUCCUUCACCUAUUGCUACACCACCUAGUCAGAGUUCAUCUUGUUCUGAUGCCCCCAUCAACAGAGGAUUGAGCAUCA | 1.34
GGGAGUUCUACAGUCCGACGAUCUAAUGUGUUGUUAUUUAUUAAGGCUAAUUUUGAGGCAAGGACUGUGUUAGUUUUACAAUGCUGGGUUAAUUCCUGUUCAUUGUUUUCAUUAUUGGAAAUAAAUAGAACUUUGUAUUUGAGCAACAGAGGAUUGAGCAUCA | 0.55

Sample 3
Target: Phosphate system positive regulatory protein PHO4, full length, GST-tagged (PHO4, Saccharomyces cerevisiae, UniProt P07270, residues 1-312)
Method: competition protein-binding microarray
Form: double-stranded DNA, one strand shown
Matrix: in vitro
Concentration: 2 µM
Setting: whole 60-bp probe, lowest competitor level
With: Cbf1 competitor, 0.05 µM
Reading: higher = stronger binding
Residues (chain): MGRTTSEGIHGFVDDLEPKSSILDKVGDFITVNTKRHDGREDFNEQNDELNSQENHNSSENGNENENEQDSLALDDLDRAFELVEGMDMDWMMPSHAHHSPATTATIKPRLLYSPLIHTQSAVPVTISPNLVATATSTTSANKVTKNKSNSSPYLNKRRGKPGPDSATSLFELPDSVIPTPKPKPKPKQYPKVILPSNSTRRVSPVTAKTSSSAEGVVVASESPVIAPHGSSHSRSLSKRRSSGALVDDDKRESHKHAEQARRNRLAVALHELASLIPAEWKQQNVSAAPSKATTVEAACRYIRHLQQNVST
Oligonucleotide | fluorescence intensity [a.u.]
AGGATCGTTGGTGCTCTCGTGATGGTTCGGTGGCGGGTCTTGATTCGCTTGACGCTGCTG | 5340
TTCAAACTAAGTTGACCCGTGAATTGGAAAAGAAATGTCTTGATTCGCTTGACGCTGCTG | 4880
CAGTTGCGACAGCAGCTCGTGTGAAGGTCGCTGGCGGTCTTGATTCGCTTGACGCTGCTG | 8160
CTTTCCCGATCTTTTCACGTGTAGTTAGCACATTTGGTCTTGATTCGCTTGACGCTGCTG | 12900
GTCTTGTCTCATTGTCACGAGACTTTCCCCACTTCAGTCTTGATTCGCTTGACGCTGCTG | 6380
ATCTTGACATTAGATCAGCTGATAAGTTTTCAACTTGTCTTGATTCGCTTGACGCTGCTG | 3480

Mixed results
Molecule | target | test | test system | conditions | scale | measurement | value
PhoQ, residues 284 288 289 292 302 303 AQGLTV | PhoP, residues 12 14 15 18 19 QYFSL (Escherichia coli, UniProt P23836) | Sort-seq, measured: YFP reporter | E. coli | PhoQ-PhoP variant library, with: 10 µM Mg2+ | reference: high Mg2+ state, higher = stronger signaling | fold induction | 4.88

Repeated from above (mixed results):
Molecule | target | test | test system | conditions | scale | measurement | value
PhoQ, residues 284 288 289 292 302 303 AQGLTV | PhoP, residues 12 14 15 18 19 QYFSL (Escherichia coli, UniProt P23836) | Sort-seq, measured: YFP reporter | E. coli | PhoQ-PhoP variant library, with: 10 µM Mg2+ | reference: high Mg2+ state, higher = stronger signaling | fold induction | 4.88
